Experimental data gathered from unrelated publications.
Compare with care: the assays were run in different laboratories. ± marks the error that the study gave.
Cell line: Caco-2

O=C(CNc1nc(O)nc(NNC(=O)c2ccc(Nc3nc(Nc4ccc(C(=O)NNc5nc(O)nc(NCC(=O)NO)n5)cc4)nc(Nc4ccc(C(=O)NNc5nc(O)nc(NCC(=O)NO)n5)cc4)n3)cc2)n1)NO  IC50 (cell growth or viability, MTT; 72 h): 0.0346 µM
COC(=O)C1CN1S(=O)(=O)c1ccc2c(C=O)c(N(C)C)ccc2c1 (stereo not drawn)  IC50 (cell growth or viability, MTT; 48 h): 11 µM
NC1=N[N+](=Cc2c3ccccc3cc3ccccc23)[Ga-3]23([S]1)([S]C(N)=N[N+]2=Cc1c2ccccc2cc2ccccc12)[S]C(N)=N[N+]3=Cc1c2ccccc2cc2ccccc12  IC50 (48 h): 7.7 ± 1.5 µM
CCOC(=O)c1ccc(-n2c(N)c(C#N)c(SC)c(C#N)c2=O)cc1  IC50 (cell viability; 24 h): 56.2 ± 3.1 µM
Oc1ccccc1-c1nn(-c2ccccn2)[n+](-c2ccccc2)n1  IC50 (cell growth, resazurin): 29 ± 3 µM
O=C(CNc1nc(Cl)nc(NNC(=O)c2ccc(Nc3nc(Nc4ccc(C(=O)NNc5nc(Cl)nc(NCC(=O)NO)n5)cc4)nc(Nc4ccc(C(=O)NNc5nc(Cl)nc(NCC(=O)NO)n5)cc4)n3)cc2)n1)NO  IC50 (cell growth or viability, MTT; 72 h): 0.0215 µM
Oc1ccccc1-c1nn(-c2ccccc2)[n+](-c2ccccc2)n1  IC50 (cell growth, resazurin): 280 ± 60 µM
[Cl][Pd-2]([Cl])([N+](=Cc1ccc[nH]1)Cc1ccco1)[N+](=Cc1ccc[nH]1)Cc1ccco1  IC50 (cell growth or viability, MTT; 24 h): > 100 µg/mL
CC(C)OC(=O)[C@]12CS[C@H](c3ccccc3)N1C(=O)/C(=C(\O)CCc1ccccc1)C2=O  IC50 (cell viability, Alamar Blue): 15.6 µg/mL
O=C(/C=C(O)/C=C/c1cccs1)/C=C/c1cccs1  IC50 (cell growth or viability, MTT; 72 h): 42 µM
CC(=O)OC[C@H]1O[C@@H](n2cc(CSc3nc4ccccc4n3Cc3cn([C@@H]4O[C@H](COC(C)=O)[C@@H](OC(C)=O)C(OC(C)=O)[C@H]4OC(C)=O)nn3)nn2)[C@H](OC(C)=O)C(OC(C)=O)[C@@H]1OC(C)=O (stereo in doubt)  IC50 (cell growth or viability, MTT): 7.9 µg/mL
COC(=O)[C@]12CS[C@H](c3ccccc3)N1C(=O)/C(=C(\O)CCc1ccccc1)C2=O  IC50 (cell viability, Alamar Blue): 31.3 µg/mL
Oc1ccc(Br)cc1C=NNC(=S)Nc1ccccc1  IC50 (cell growth, MTT; 72 h): 4.5 ± 0.1 µM
O=[N][Fe]1([N]=O)[S](CCO)[Fe]([N]=O)([N]=O)[S]1CCO  IC50 (cell growth or viability, CCK-8): 39.3 µM
O=C(O)CNc1nc(NNC(=O)c2ccc(Nc3nc(Nc4ccc(C(=O)NNc5nc(NCC(=O)O)nc(N6CCOCC6)n5)cc4)nc(Nc4ccc(C(=O)NNc5nc(NCC(=O)O)nc(N6CCOCC6)n5)cc4)n3)cc2)nc(N2CCOCC2)n1  IC50 (cell growth or viability, MTT; 72 h): 0.0268 µM
CN(C)C(=S)N(C)N=Cc1ccccc1SSc1ccccc1C=NN(C)C(=S)N(C)C  IC50 (cell proliferation, MTT; 72 h): 0.38 ± 0.06 µM
C=CCOC(=O)[C@]12CS[C@H](c3ccccc3)N1C(=O)/C(=C(\O)CCc1ccccc1)C2=O  IC50 (cell viability, Alamar Blue): 7.81 µg/mL
O=C(O)CNc1nc(O)nc(NNC(=O)c2ccc(Nc3nc(Nc4ccc(C(=O)NNc5nc(O)nc(NCC(=O)O)n5)cc4)nc(Nc4ccc(C(=O)NNc5nc(O)nc(NCC(=O)O)n5)cc4)n3)cc2)n1  IC50 (cell growth or viability, MTT; 72 h): 0.0648 µM
c1ccc(-c2nn(-c3ccccn3)[n+](-c3ccccc3)n2)cc1  IC50 (cell growth, resazurin): 13 ± 2 µM
O=C(CNc1nc(NNC(=O)c2ccc(Nc3nc(Nc4ccc(C(=O)NNc5nc(NCC(=O)NO)nc(N6CCCCC6)n5)cc4)nc(Nc4ccc(C(=O)NNc5nc(NCC(=O)NO)nc(N6CCCCC6)n5)cc4)n3)cc2)nc(N2CCCCC2)n1)NO  IC50 (cell growth or viability, MTT; 72 h): 0.039 µM
[CH3][Pd-2]([Cl])([N+](=Cc1ccc[nH]1)Cc1ccccc1)[N+](=Cc1ccc[nH]1)Cc1ccccc1  IC50 (cell growth or viability, MTT; 24 h): > 100 µg/mL

Some of these lines once more:
Oc1ccccc1-c1nn(-c2ccccc2)[n+](-c2ccccc2)n1  IC50 (cell growth, resazurin): 280 ± 60 µM
[Cl][Pd-2]([Cl])([N+](=Cc1ccc[nH]1)Cc1ccco1)[N+](=Cc1ccc[nH]1)Cc1ccco1  IC50 (cell growth or viability, MTT; 24 h): > 100 µg/mL
